Experimental data of several laboratories.
A part holds a random share of what one study measured. Changes are numbered by the printed parent chain.

Block 1 — target: CCND1, cyclin fold, Cln2 fusion (human); method: yeast growth competition, sequencing; medium: yeast; setting: weak parent motif; relative to: not given; reading: higher = stronger binding
Starting sequence: SAMHD1 docking peptide (human); ASKSRVQLFKDDP
`ASKSRVQLFKIDP [D11I]` — result for “normalised enrichment score”: 0.0715.
`ASKSRVFLFKDDP [Q7F]`: “normalised enrichment score” 0.273.
`ASKSRVQLFKDLP [D12L]`: “normalised enrichment score” 0.114.
`ALKSRVQLFKDDP [S2L]`: “normalised enrichment score” 0.217.
`AIKSRVQLFKDDP [S2I]`: “normalised enrichment score” 0.694.
`ASISRVQLFKDDP [K3I]` — result for “normalised enrichment score”: 0.57.

Block 2 — method: protein-binding microarray; form: double-stranded DNA, one strand shown; medium: in vitro; tested at: 2540 nM top; setting: 60-bp whole probe; with: salmon DNA 0.4 mg/ml; relative to: random background probes; reading: higher = stronger binding; shared flanks, not repeated: GCCTAGCAC … GTCTTGATTCGCTTGACGCTGCTG
Target: Interferon regulatory factor 3, full length, phosphomimetic (IRF3, Homo sapiens, UniProt Q14653, residues 1-427, S386D/S396D/S398D/S402D/T404D/S405D)
Target sequence (chain): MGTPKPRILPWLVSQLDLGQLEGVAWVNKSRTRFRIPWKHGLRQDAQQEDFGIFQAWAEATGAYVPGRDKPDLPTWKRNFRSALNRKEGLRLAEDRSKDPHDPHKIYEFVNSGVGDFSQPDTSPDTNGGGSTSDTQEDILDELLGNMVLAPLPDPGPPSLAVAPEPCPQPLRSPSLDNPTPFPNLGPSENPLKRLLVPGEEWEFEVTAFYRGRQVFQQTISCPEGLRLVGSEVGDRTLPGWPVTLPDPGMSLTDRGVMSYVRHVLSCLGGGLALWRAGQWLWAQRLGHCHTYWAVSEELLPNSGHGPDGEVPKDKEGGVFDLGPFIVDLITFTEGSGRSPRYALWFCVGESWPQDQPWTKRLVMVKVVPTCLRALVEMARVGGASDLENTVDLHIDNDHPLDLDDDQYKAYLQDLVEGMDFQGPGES
`ACTGATCACCGATTTCCTTCAGTGCTA`: “fitted relative affinity” 0.816 z-score.
Under “fitted relative affinity”, `TCATAGGTTTCACTTTCCACTGTGCTA` is recorded as 5.94 z-score.
`TTAGGTTTCGGTTTCGGTTGGTGCTAG` — result for “fitted relative affinity”: 11.2 z-score.
`TTAGGTTGCGGTTCCGGTTAGTGCTAG` — result for “fitted relative affinity”: 6.31 z-score.
Under “fitted relative affinity”, `TTAGAACTGGGGTTTCGGTTAGTGCTA` is recorded as 2.7 z-score.
Under “fitted relative affinity”, `TCAGTACTTTCTATCTCACTGTGCTAG` is recorded as 2.64 z-score.
For `GACGGTTTCGGGACTGGTGACGTGCTA`, “fitted relative affinity” read 4.76 z-score.
`TGAGCACCCAGAGCCGCCTGGTGCTAG` — result for “fitted relative affinity”: -0.796 z-score.
Under “fitted relative affinity”, `GACAGACTGCTTATCCTGACGTGCTAG` is recorded as -0.159 z-score.

Block 3 — method: DHFR PCA, deep sequencing; medium: yeast; with: (+)-ABA 0.39 µM; relative to: wild-type fitted maximum; reading: higher = stronger binding
Target: ABI1, truncated, D143A, DHFR fusion (Arabidopsis thaliana)
Setting: methotrexate growth selection, single substitutions
Starting sequence: PYL1, truncated, DHFR fusion (Arabidopsis thaliana); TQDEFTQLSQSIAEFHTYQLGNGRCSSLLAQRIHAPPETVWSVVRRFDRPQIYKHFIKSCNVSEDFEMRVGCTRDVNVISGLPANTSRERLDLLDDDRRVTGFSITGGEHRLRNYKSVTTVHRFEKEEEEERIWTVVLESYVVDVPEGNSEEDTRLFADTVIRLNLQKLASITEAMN; partner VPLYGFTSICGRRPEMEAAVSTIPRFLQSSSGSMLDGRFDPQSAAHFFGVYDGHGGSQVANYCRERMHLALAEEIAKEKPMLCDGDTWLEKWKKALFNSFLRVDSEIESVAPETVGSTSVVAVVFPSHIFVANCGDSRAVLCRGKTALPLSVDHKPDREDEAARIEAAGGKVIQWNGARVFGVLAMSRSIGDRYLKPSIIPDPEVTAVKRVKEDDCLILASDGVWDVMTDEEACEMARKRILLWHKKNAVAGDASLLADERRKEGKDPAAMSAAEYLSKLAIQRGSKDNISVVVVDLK
`V161R`: “relative binding score” -0.242%.
For `K116V`, “relative binding score” read -0.7%.
`E131H`: “relative binding score” 65.8%.
`Q2L` — result for “relative binding score”: 66.1%.
Under “relative binding score”, `E131L` is recorded as 49.9%.
For `L138A`, “relative binding score” read -21.4%.

Mixed results
`PhoQ, residues 284 288 289 292 302 303 SLKLQV` has a fold induction of 20.2 (PhoP, residues 12 14 15 18 19 TPWLV (Escherichia coli, UniProt P23836); Sort-seq, item: YFP reporter; E. coli; PhoQ-PhoP variant library, with: 10 µM Mg2+; relative to: high Mg2+ state, higher = stronger signaling).
